Results from different studies.
A part holds a random share of what one study measured. Changes are numbered by the printed parent chain.

Set 1
Target: RNA binding protein fox-1 homolog 2, RRM domain, GST-SBP tag (RBFOX2, Homo sapiens, UniProt O43251-10, residues 100-194)
Method: RNA Bind-n-Seq
Molecule type: RNA
Matrix: in vitro
Tested at: 365 nM
Setting: natural RNA segment, single round, ends assumed
Baseline: no-protein control
Reading: higher = stronger binding
Shared flanks, not repeated: GGGAGUUCUACAGUCCGACGAUC … UGGAAUUCUCGGGUGCCAA
Construct (chain): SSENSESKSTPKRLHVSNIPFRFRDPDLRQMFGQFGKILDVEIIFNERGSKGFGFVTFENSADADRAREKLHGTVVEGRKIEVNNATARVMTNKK
Strand | RBNS enrichment (R)
GGAAUUAAUUUAUCAGCAGCCUAAAACUGUUGUGUUUUUCUUAUGGUUUAAAAAACGCCAUGUCAUUGAUAACUCCCUUUCUCCCUUCCCUUCUCCCGGUCUGCUGAUCA | 0.438
GCCAUCAUCUCAUAAAAGGAAUUCAGAAGGUGCUGGUUUAGGUUUAGUGGGAAAACGACUUCUGUUUUGACAUGUAGAGUUUGAAGAUUAGGAGAUUGACAGAUGAUGUU | 3.17
AUCAAAUAUUUAUGUGUAAAAUGUAUGUUUUACCUCCUUAAAAUGCCUAAAAGUUAGUUAAUAGUUACUUUGGUUUAACCUAUACACAAUGAUUAAGUGCAUUUAAUAUU | 0.442
CAGGACUUUUUUCUUUAAAGCUAGUCAUUUCAAAAGCAUAUUGUAUUUUUUUGAAUGACUACAGUAUGGACAAUUUCAAAAACCAAAACCCACUUUGGAUUGGUGGAAGU | 0.476
ACAUUGUACAUUUAGUGUGUGUAUUUUAAUAAUGGUUGAUCUUAAAUCUGUAUACAAAAUAUCACUGAUAUAAUGAACUCUCUCUCUCUAGACAAGAUAAAUUUUGCCUC | 0.588
GCAUGUACCACAAAACAGUAGUACUUUAACCCCUAAUGCCACGUCUCCCCAUCAGCUGCCGGUUUUGUCUUUAACCUGCUAUCAUCUCUUCUCCUGCCCCUCCCUCCCCA | 5.72
GGUAUUUUAUUCUCUUUGAAGCAAUUGUGAAUGGGAGUUCACUCAUGAUUUGGCUCUCUGUUUGUCUGUUGUUGGUGUAUAAGAAUGCUUGUGAUUUUUGUACAUUGAUU | 0.944
GAUGAGCUACCCCCUCAGGUGCACAAGGUAUAGACAAGGCUGAGCAGGGUUCCUGUGGCCCAGGAUGGAGGCCACCGCUGCCCUGCCAUCCCGUCUGCCUGCCAUGGGAC | 0.527
UGUGCUGGGGCCCUGCAAUUGGAAUGUUGGCCAGAUUUCUGCAAUAAACACUUGUGGUUUGCGGCCAUCUCCUUGGUUAUGAAUGGCUGUUUCGCUGAGCGCCAGGCAUU | 0.339
UGCAUUUCCAUUUUUUCCUCUCUUCCAAUUUAUUCUCCAUGUAACAGAGUAGUUUGGUUUUUAAAAUAUCUGGUGAUGUCAUUCUCUUGCUUAGAACACUAGCUUCCUGU | 0.276
CAGUGGGGAUGCAGCUGUUGGACAGGUAUUGGGGGCAAGGUUGGUAGGGAGGACAGACUGUCACUUGCUGUUACAGGCACAGGUGAUUAAAAUGCUAAAUAUUGCAAAUU | 1.16
AUGAUUAAUAUAAAUUAGUAUACUUUGGCUCUGUGGAAAAGUGUAAAUUGUGGUUUUAGAAACCAACUCUUGAUAGUUGUACUGUGAUUAUAAAAAACAAUUGUUAAAUA | 0.878

Set 2
Target: CCND3, cyclin fold, Cln2 fusion (human)
Method: yeast growth competition, sequencing
Matrix: yeast
Setting: weak parent motif
Baseline: not given
Reading: higher = stronger binding
Starting sequence: CDC25A docking peptide (human); PPHRRRLLFACSP; partner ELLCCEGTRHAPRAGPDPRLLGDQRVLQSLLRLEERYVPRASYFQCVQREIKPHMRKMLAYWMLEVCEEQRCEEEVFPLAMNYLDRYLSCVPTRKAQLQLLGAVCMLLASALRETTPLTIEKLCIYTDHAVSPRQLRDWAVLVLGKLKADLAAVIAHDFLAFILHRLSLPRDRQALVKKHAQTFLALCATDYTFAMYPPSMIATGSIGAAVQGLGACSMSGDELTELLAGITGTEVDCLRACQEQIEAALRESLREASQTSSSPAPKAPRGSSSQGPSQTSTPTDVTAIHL
Variant | normalised enrichment score
IPHRRRLLFACSP [P1I] | 0.169
PPHRRRGLFACSP [L7G] | 0.0959
PPHRTRLLFACSP [R5T] | 0.125
PPHRRRSLFACSP [L7S] | 0.0789
PPHRRRLLFFCSP [A10F] | 0.176
PPHRRRLLTACSP [F9T] | 0.134
PPHRRRPLFACSP [L7P] | 0.0733
PPHRRRLLNACSP [F9N] | 0.162
PPHRRRLLFAMSP [C11M] | 0.0834
PFHRRRLLFACSP [P2F] | 0.157
PPHRRRLLFKCSP [A10K] | 0.105
PPHRRRLLGACSP [F9G] | 0.206
PNHRRRLLFACSP [P2N] | 0.162
EPHRRRLLFACSP [P1E] | 0.0882
PPHRRRLLFAGSP [C11G] | 0.0994
PPHRRRLLFALSP [C11L] | 0.166
PPHRRRLMFACSP [L8M] | 0.16
PPHCRRLLFACSP [R4C] | 0.163
PPHRDRLLFACSP [R5D] | 0.033

Set 3
Target: Sal-like protein 4, full length isoform A (SALL4, Homo sapiens, UniProt Q9UJQ4, residues 1-1053)
Chain of UniProt Q9UJQ4 (whole entry, looked up): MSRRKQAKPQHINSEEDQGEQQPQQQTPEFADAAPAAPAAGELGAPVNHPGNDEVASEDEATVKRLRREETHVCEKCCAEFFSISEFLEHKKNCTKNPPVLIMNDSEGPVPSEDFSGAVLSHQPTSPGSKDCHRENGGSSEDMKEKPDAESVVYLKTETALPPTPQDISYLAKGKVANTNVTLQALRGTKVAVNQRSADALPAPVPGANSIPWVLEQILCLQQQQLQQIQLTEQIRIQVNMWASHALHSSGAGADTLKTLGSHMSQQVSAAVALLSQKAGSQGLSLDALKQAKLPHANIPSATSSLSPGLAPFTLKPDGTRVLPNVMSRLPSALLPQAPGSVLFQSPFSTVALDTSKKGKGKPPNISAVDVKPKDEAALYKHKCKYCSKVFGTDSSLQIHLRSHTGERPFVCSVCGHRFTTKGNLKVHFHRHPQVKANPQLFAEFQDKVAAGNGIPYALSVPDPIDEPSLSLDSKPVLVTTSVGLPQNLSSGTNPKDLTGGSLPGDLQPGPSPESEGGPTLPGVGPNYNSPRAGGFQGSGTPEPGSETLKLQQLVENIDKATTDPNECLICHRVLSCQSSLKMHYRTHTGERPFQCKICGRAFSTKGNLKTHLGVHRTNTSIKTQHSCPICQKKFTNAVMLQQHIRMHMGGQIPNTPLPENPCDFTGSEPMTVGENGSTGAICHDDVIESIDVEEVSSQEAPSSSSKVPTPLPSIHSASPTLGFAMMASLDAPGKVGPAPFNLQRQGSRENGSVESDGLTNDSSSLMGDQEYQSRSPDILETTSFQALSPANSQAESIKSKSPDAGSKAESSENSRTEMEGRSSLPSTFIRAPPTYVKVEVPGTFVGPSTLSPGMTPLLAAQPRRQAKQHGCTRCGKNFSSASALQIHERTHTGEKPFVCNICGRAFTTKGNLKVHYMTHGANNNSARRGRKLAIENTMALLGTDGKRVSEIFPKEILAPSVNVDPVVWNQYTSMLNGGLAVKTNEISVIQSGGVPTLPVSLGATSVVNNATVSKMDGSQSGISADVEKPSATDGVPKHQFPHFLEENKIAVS
Method: universal PBM
Molecule type: double-stranded DNA, one strand shown
Matrix: in vitro
Tested at: 600 nM
Setting: 8-mer, flanks averaged, mean of replicates
Reading: higher = stronger binding
Strand | E-score
AATCGGAT | 0.0928
TCGTGACA | 0.102
CCCCTACG | -0.258
ACAGAATA | 0.284
ATCAGAAT | 0.139
CGGTACGC | -0.192
GGTTCACA | 0.0349
CGGCGAGC | -0.339
GCGTCTCA | -0.242
ACGTATTC | 0.0468
TGGGGACA | -0.127
ATTTACTG | 0.27
CGCAGCTC | -0.2
TCCATCAA | 0.263
GGGCGGCA | -0.414
CTCCGGAG | -0.32
GCCAGAAC | -0.176

Set 4
Target: Histone acetyltransferase KAT6A, winged helix 2, GST fusion (KAT6A, Homo sapiens, UniProt Q92794, residues 85-181)
Method: protein binding microarray
Molecule type: double-stranded DNA, one strand shown
Matrix: in vitro
Tested at: not given
Setting: 8-mer, flanks averaged, mean of 2 arrays, mostly near background
Baseline: not given
Reading: higher = stronger binding
Residues (chain): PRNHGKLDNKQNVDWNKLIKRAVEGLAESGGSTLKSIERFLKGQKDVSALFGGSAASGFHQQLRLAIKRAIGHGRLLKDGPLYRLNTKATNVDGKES
Strand | E-score
GCTTCCGA | 0.118
AATAAGTA | -0.119
GGCGATAA | -0.0366
ATACAATA | -0.0379
CTCTCCTC | -0.138
ATCACCGA | -0.0383
ATCTGGTA | 0.0202
CACAAGTC | -0.205
CGCAAGTC | -0.204
AAGACGAG | -0.0514
GAAGTGCA | 0.0327
ACTGGTGA | -0.138
CACATGGG | -0.173
CGTTCGTC | 0.0804
GATTCCGA | 0.0413
GTATTAAA | 0.151
GGAGTTAA | 0.00088
CGTGTCCC | 0.122
CCGGTCCA | -0.0877
CGATTATA | -0.00453
AAAGCGGC | 0.186
ATGTACCG | -0.234
CCGCAGTC | 0.152

Set 5
Target: RING finger protein unkempt homolog, zinc fingers 1-6, GST-SBP tag (UNK, Homo sapiens, UniProt Q9C0B0, residues 30-357)
Chain of UniProt Q9C0B0 (30-357, looked up): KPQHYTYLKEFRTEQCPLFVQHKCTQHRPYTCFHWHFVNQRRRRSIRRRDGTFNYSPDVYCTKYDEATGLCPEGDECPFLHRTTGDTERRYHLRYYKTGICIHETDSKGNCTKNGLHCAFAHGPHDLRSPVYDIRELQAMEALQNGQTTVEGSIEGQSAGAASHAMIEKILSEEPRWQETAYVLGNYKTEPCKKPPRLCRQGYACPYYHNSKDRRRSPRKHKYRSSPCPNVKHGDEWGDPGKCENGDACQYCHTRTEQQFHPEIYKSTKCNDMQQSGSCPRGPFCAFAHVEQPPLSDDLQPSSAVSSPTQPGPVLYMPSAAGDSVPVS
Method: RNA Bind-n-Seq
Molecule type: RNA
Matrix: in vitro
Tested at: not given
Setting: RNA with constant flanks, human and mouse sites, ends assumed
Baseline: input RNA pool
Reading: higher = stronger binding
Shared flanks, not repeated: GGGAGUUCUACAGUCCGACGAUC … CAACAGAGGAUUGAGCAUCA
Strand | bound/input enrichment [ratio]
GAUGAGACUGAGCUUCACUCUUCUGAGAAAGGUUUAAAAGUAGAGGAAAAUAUUCAAAAGCAAAGUCAACAAACAAAGCUUUCUUCAGAUGAUAAAACCGAACGAAAAAGUAAACAUAGG | 0.62
AGUGUGCAGGAAUUCAUGACCUUUACAAGUCAACUGAUUGUGGAACGCUCGGGGAAAGGCAGCAGAGCUUCUGUCAAAGAACAAGAGUAUCUUUGCCAUGUCUACGUCCGGAGCGACAGU | 0.105
CACUCUGGGGAAGAAGGAGUACAUUGAAGGGAGAUUGGCACCUAGUGGCUGGGAGCUUGCCAGGAACCCAGUGGCCAGGGAGCGUGGCACUUACCUUUGUCCCUUGCUUCAUUCUUGUGA | 0.129
AAAUAACAUUGGAAAAUUGGGAGAAGUCUCCUUGGUUUGGAAAAAAAGGACUCUUCAACCUAGCUCACUUUCUUAUCCGGACUGGGAUAUUAAAUAUACGACACAUCCAGGAGUUUAUUG | 0.299
GACGUCAUGGAAGACAAACUCAAGGGCGAGAUGAUGGAUCUCCAGCAUGGCAGCCUCUUCCUUAAAACACCAAAAAUUGUCUCCAGCAAAGACUACUGUGUAACUGCGAACUCCAAGCUG | 0.167
AUGCACUGUCCUACUGUGCCUGAUGAAAAAAAUCAUUAUGAGAAAAGUUCUGGUUCUUCAGAAGGUCAAAGCAAAACAGAAUCUGAUUUUUCCAACCUAGACUCUGAAAAACACAAAAAA | 0.118
GUACACUAUAUCUACACUUACUCAUUAUUUAAAAAGAAUAAUGAAAAAUCUAGAUCAAUUCUUCAAUUUGAUUGAACUGUUCAGCCUUUUCAAGAUUUCUUUAUUUACAAAUGAUUACAU | 0.577
GCUUAGUUUUAAAGACAACUUUGAAAUAAACAAUGAAAUAAAAGAUGUCACUAAAAUCUUUGAGGCUCCUGAACACAUUUUGCUGACAUAGUUUUGGGGCUUGAGGAGACCGCAUGUUGU | 0.727
CGCUCAGAAUAAAAAUUCUUUGUGCAACCUAUGUAAAUGUAAAUAUUCGAGACAUUGAUAAGAUCUAUGUUCGAACAGGUAUCUACCAUGGAGGAGAACCCUUAUGUGACAAUGUGAACA | 0.163
CGCACCACCAGAGGAAAGCGGAAGAGAGUUGAUGUGGAGGAGUCGGAGGCGAGCAGCAGUGUUAGCAUUUCCCACUCUGCCUCAGCCACGGGGAACGUGUGCAUUGAAGAGAUAGAUGUU | 0.291
AUCAAUGUGAAGAAGGGGAGCAUCUCGGGGAUUACCAUGGUGCUGGCAUGCUACGUGCUCUUUAGCUACUCCUUUUCCUACAAGCAUCUCAAGCACGAGCGGCUCCGCAAAUACCACUGA | 0.188

Set 6
Target: Prothrombin, mature alpha-thrombin (F2, Homo sapiens, UniProt P00734)
Method: aptamer microarray, sandwich
Molecule type: DNA with 2'F-ANA
Matrix: in vitro
Tested at: 200 nM
Setting: whole 15-mer aptamer, many near background
With: Cy3 exosite-II aptamer, 400 nM
Reading: higher = stronger binding
Strand: GGTTGGTGTGGTTGG
Modification | mean fluorescence intensity [a.u.]
2'F-ANA at 4 5 7 8 12 14 | 52.8
2'F-ANA at 3 5 8 10 11 12 13 15 | 59.3
2'F-ANA at 1 5 6 7 9 10 13 14 | 44.7
2'F-ANA at 1 3 4 5 7 8 9 11 12 13 14 15 | 48.8
2'F-ANA at 2 8 9 14 | 141
2'F-ANA at 3 4 8 10 13 14 15 | 190
2'F-ANA at 1 3 7 8 9 10 11 12 14 | 73
2'F-ANA at 1 4 7 8 11 12 14 | 65.2
2'F-ANA at 4 6 7 8 9 12 | 536
2'F-ANA at 1 3 5 6 7 8 9 11 14 | 61.4
2'F-ANA at 1 2 3 7 8 9 11 12 13 15 | 313
2'F-ANA at 1 3 5 6 7 8 9 10 11 | 47.6
2'F-ANA at 2 3 4 7 8 9 11 13 | 497
2'F-ANA at 1 4 8 9 13 14 15 | 47.9
2'F-ANA at 1 5 6 7 10 12 | 69.1
2'F-ANA at 1 3 6 8 14 | 94.7
2'F-ANA at 4 5 6 7 8 10 11 12 15 | 47.7

For quick reference, copied from above (set 2):
Variant | normalised enrichment score
IPHRRRLLFACSP [P1I] | 0.169
PPHRRRLLFAMSP [C11M] | 0.0834
PPHRRRPLFACSP [L7P] | 0.0733
EPHRRRLLFACSP [P1E] | 0.0882
PNHRRRLLFACSP [P2N] | 0.162
PPHRRRSLFACSP [L7S] | 0.0789
PPHRRRLMFACSP [L8M] | 0.16
PPHRRRLLFALSP [C11L] | 0.166
PPHRRRGLFACSP [L7G] | 0.0959
